Results gathered from unrelated publications.
Compare with care: the assays were run in different laboratories. Values after ≈ are worked out from the molar mass of the structure shown.

CCN(Cc1ccccc1)C(=O)CCc1nc(CN2CCN(C(=O)Cc3ccc(OC)c(OC)c3)CC2)no1 — onset day (mechanical withdrawal threshold, von Frey; mouse CCI model; 5 mg/kg, dosing from day 11): 13 days
CCCCCc1cc(O)c2c(c1)OC(C)(C)C1CCC(C)=CC21 (stereo not drawn) — intraocular pressure (rabbit, α-chymotrypsin glaucoma model; topical, 50 µL of 0.8% w/v, 2 h; reference: baseline): 91%
CCN(CC)CC#CCOC(=O)[C@]1(C)CCC[C@]2(C)c3ccc(C(C)C)cc3CC[C@@H]12 — selectivity index (Influenza A virus; MDCK, A/Puerto Rico/8/34 (H1N1); reference: CC50 over IC50): 1
N=C(N)N1CC23C4C=CC5C4C4C2C=CC4C53C1 — EC50 (Influenza A virus; viral replication; MDCK, H1N1 A/PR/8/34): > 100 µM
COC[C@@H](NC(C)=O)C(=O)NCc1ccc(N=[N+]=[N-])cc1 — slow-inactivated channels (voltage-gated sodium channel; inhibitor, whole-cell patch clamp; CAD; 40 µM, holding potential -50 mV, together with: UV irradiation 312 nm 5 min): ~45%
CC[C@H](C)[C@H](NC(=O)[C@@H](NC(=O)[C@H](CC(=O)O)NC(C)=O)[C@@H](C)O)C(=O)N[C@@H](CCCNC(=N)N)C(=O)N[C@@H](CC(C)C)C(=O)N[C@@H](CC(C)C)C(=O)N[C@@H](Cc1ccccc1)C(=O)N[C@@H](CCC(N)=O)C(=O)N[C@@H](CC(C)C)C(=O)N[C@@H](CCSC)C(=O)N[C@@H](CCCNC(=N)N)C(=O)N1CCC[C@H]1C(=O)N1CCC[C@H]1C(=O)N[C@@H](CC(N)=O)C(=O)N[C@@H](CCSC)C(=O)N[C@H](C(=O)N1CCC[C@H]1C(=O)N[C@@H](C)C(=O)N[C@H](C(=O)N[C@@H](CC(N)=O)C(=O)N[C@@H](C)C(N)=O)C(C)C)[C@@H](C)O — antigen-experienced T cells (item: HA-02 tetramer; tetramer+ CD4 T cells, PBMC, healthy adults, HLA-DRB1*0101; dose not given, CD62L−CD45RA+/− or CD62L+CD45RA−): 85.7%
CCCCCCCCC(=O)NCc1ccc(O)c(OC)c1 — IC50 (mouse mAb 1-F12; antibody binding, indirect competitive ELISA; together with: coating antigen 4-OVA): 0.203 µg/mL (≈ 0.69 µM)
CN1CC23C4C5CC5C5C4C4C2C2CC2C4C53C1 (stereo not drawn) — EC50 (Influenza A virus; viral replication, inhibitor; H3N2): > 100 µM
CC/C=C\C/C=C\C/C=C\C/C=C\C/C=C\C/C=C\CCC(=O)Nc1ccn(C2OC(CO)C(O)C2(F)F)c(=O)n1 (stereo not drawn) — CC50 (NCI-H460; NCI60 screen): 43.3 µM
C1CC2C3C4C5CCC4C24CNCC54C13 — EC50 (Influenza A virus; viral replication; MDCK, A/Ned/378/05 (H1N1)): 50 µM
C[C@@](O)(C(F)F)[C@H](NC(=O)c1ccc(C#CC#CC2CC2)cc1)C(=O)NO — MIC50 (Burkholderia cepacia; agar dilution; clinical isolates): 0.064 µg/mL (≈ 0.17 µM)
O=C(O)CC[C@H](NC(=O)N[C@@H](CCCCNC(=O)[C@H](Cc1ccc2ccccc2c1)NC(=O)[C@H]1CC[C@H](CNC(=O)CNC(=O)CNC(=O)CNC(=O)CN2CCN(CC(=O)O)CCN(C(CCC(=O)NCCC[P+](c3ccccc3)(c3ccccc3)c3ccccc3)C(=O)O)CCN(CC(=O)O)CC2)CC1)C(=O)O)C(=O)O (stereo partly drawn) [terbium-161 labelled] — surface-bound activity (PC-3 PIP (PSMA+); concentration not given): 40%

Excerpt of the above:
CCCCCc1cc(O)c2c(c1)OC(C)(C)C1CCC(C)=CC21 (stereo not drawn) — intraocular pressure (rabbit, α-chymotrypsin glaucoma model; topical, 50 µL of 0.8% w/v, 2 h; reference: baseline): 91%
